Published values of several laboratories.
Protocols differ between the studies behind these lines.
Organism: Staphylococcus aureus

| SMILES | assay | system | setting | MIC |
| --- | --- | --- | --- | --- |
| C/C=C(\C)c1cc(O)c(C)c(OC(=O)c2c(C)c(Cl)c(O)c(Cl)c2O)c1 | broth microdilution | 718306 | – | 16 µg/mL |
| CC1CCN(CCCN2/C(=C/c3cc[n+](C)c4ccccc34)Sc3ccccc32)CC1.[I-] | broth microdilution | ATCC 29213 | – | 2 µg/mL |
| CCC[C@@H]1C[C@@H](C(=O)N[C@@H]([C@H]2O[C@H](SC)[C@H](O)[C@@H](O)[C@H]2O)[C@@H](C)O)N(C)C1 | broth microdilution | BNCC 186335 | – | 4 µg/mL |
| CO/N=C(\C(=O)N[C@@H]1C(=O)N2C(C(=O)O)=C(COC(C)=O)CS[C@H]12)c1csc(N)n1 | broth microdilution | ATCC 33591 | 18 h | 256 µg/mL |
| CC[C@H]1OC(=O)[C@H](C)[C@@H](O[C@H]2C[C@@](C)(OC)[C@@H](O)[C@H](C)O2)[C@H](C)[C@@H](O[C@@H]2O[C@H](C)C[C@H](N(C)C)[C@H]2O)[C@](C)(O)C[C@@H](C)C(=O)[C@H](C)[C@@H](O)[C@]1(C)O | – | 129 MRSA clinical isolate | – | > 100 µM |
| O=C(CCCN1CCC(O)(c2ccc(Br)cc2)CC1)c1ccc(F)cc1 | – | – | – | > 128 µg/mL |
| CC1(C)S[C@@H]2[C@H](NC(=O)[C@H](N)c3ccccc3)C(=O)N2[C@H]1C(=O)O | – | ATCC 43300, resistant | 18 h, 37 °C, LED light 10 min, 1.57 mW | 32 µM |
| CCn1cc(C(=O)O)c(=O)c2cc(F)c(N3CCNCC3)cc21 | broth microdilution | ATCC 33591 | 18 h | 1 µg/mL |
| CN(C)[C@@H]1C(O)=C(C(N)=O)C(=O)[C@@]2(O)C(O)=C3C(=O)c4c(O)cccc4[C@@](C)(O)[C@H]3C[C@@H]12 | – | 129 MRSA clinical isolate | – | 0.1 µM |
| CN[C@H](CC(C)C)C(=O)N[C@H]1C(=O)N[C@@H](CC(N)=O)C(=O)N[C@H]2C(=O)N[C@H]3C(=O)N[C@H](C(=O)N[C@H](C(=O)O)c4cc(O)cc(O)c4-c4cc3ccc4O)[C@H](O)c3ccc(c(Cl)c3)Oc3cc2cc(c3O[C@@H]2O[C@H](CO)[C@@H](O)[C@H](O)[C@H]2O[C@H]2C[C@](C)(N)[C@H](O)[C@H](C)O2)Oc2ccc(cc2Cl)[C@H]1O | – | USA300 MRSA | together with: ZnSO4 0.3 mM | 1 µg/mL |
| O=C(Nc1nnc(Cl)s1)c1ccco1 | – | – | – | > 128 µg/mL |
| CN(C)c1ccc2nc3ccc(=[N+](C)C)cc-3sc2c1 | – | ATCC 43300, resistant | 18 h, 37 °C, LED light 10 min, 1.57 mW | 64 µM |
| CC[C@H]1OC(=O)[C@H](C)[C@@H](O[C@H]2C[C@@](C)(OC)[C@@H](O)[C@H](C)O2)[C@H](C)[C@@H](O[C@@H]2O[C@H](C)C[C@H](N(C)C)[C@H]2O)[C@](C)(O)C[C@@H](C)C(=O)[C@H](C)[C@@H](O)[C@]1(C)O | broth microdilution | BNCC 186335 | – | 4 µg/mL |
| Cc1c2c(nn1C)CSCc1cc(n(C)n1)CSc1cc(c3ccccc3c1)OCCCc1c(C(=O)O)n(C)c3c-2c(Cl)ccc13 | broth microdilution | MSSA SA113 | – | 6.25 µM |
| CNC(C)C1CCC(N)C(OC2C(N)CC(N)C(OC3OCC(C)(O)C(NC)C3O)C2O)O1 (centres unmarked) | – | clinical isolate S.A02, RPMI with FBS | 24 h, 37 °C | 0.39 µM |
| NCCCC[C@H](NC(=O)[C@H](Cc1ccccc1)NC(=O)[C@H](CCC(N)=O)NC(=O)[C@H](Cc1ccccc1)NC(=O)[C@H](CCC(N)=O)NC(=O)[C@@H](N)Cc1ccccc1)C(N)=O | broth microdilution, optical density | ATCC 25923 | – | > 2000 µM |
| COc1cccc(OC)c1C(=O)N[C@@H]1C(=O)N2[C@@H]1SC(C)(C)[C@@H]2C(=O)O | – | MRSA 2 | – | > 100 µM |
| COc1ccc2nc(NC(=O)c3cc(=O)c4ccccc4o3)sc2c1 | – | – | – | > 128 µg/mL |
| CC1(C)S[C@@H]2[C@H](NC(=O)[C@H](N)c3ccccc3)C(=O)N2[C@H]1C(=O)O | broth microdilution | MRSA, cation-adjusted Mueller-Hinton broth | 16 h, 37 °C | 128 µg/mL |

| SMILES | assay | system | setting | MIC |
| --- | --- | --- | --- | --- |
| CC(=O)Oc1cc2c(s1)CCN(C(C(=O)C1CC1)c1ccccc1F)C2 (centres unmarked) | – | USA300 CA-MRSA | 20 h | > 128 µg/mL |
| Oc1c(Br)cc(Br)c2nc3c(F)cccc3nc12 | broth microdilution | MRSA BAA-44 | – | 0.78 µM |
| CN[C@H](CC(C)C)C(=O)N[C@H]1C(=O)N[C@@H](CC(N)=O)C(=O)N[C@H]2C(=O)N[C@H]3C(=O)N[C@H](C(=O)N[C@H](C(=O)O)c4cc(O)cc(O)c4-c4cc3ccc4O)[C@H](O)c3ccc(c(Cl)c3)Oc3cc2cc(c3O[C@@H]2O[C@H](CO)[C@@H](O)[C@H](O)[C@H]2O[C@H]2C[C@](C)(N)[C@H](O)[C@H](C)O2)Oc2ccc(cc2Cl)[C@H]1O | – | ATCC 29213 | 16 h | 1 µg/mL |
| CC(C)CCNc1nc(Cl)c2c(c1O)C(=O)C1=C(O)[C@]3(O)C(=O)C(C(N)=O)=C(O)[C@@H](N(C)C)[C@@H]3C[C@@H]1C2.Cl.Cl.Cl | broth microdilution CLSI | ATCC 29213 | – | 0.5 µg/mL |
| NC[C@H]1O[C@H](O[C@H]2[C@H](O)[C@@H](O[C@H]3O[C@H](CO)[C@@H](O)[C@H](N)[C@H]3O)[C@H](N)C[C@@H]2N)[C@H](N)C[C@@H]1O | – | MRSA 1 | – | 6.25 µM |
| CCCCCCCCCC(=O)N[C@@H](Cc1c[nH]c2ccccc12)C(=O)N[C@H](CC(N)=O)C(=O)N[C@@H](CC(=O)O)C(=O)N[C@@H]1C(=O)NCC(=O)N[C@@H](CCCN)C(=O)N[C@@H](CC(=O)O)C(=O)N[C@H](C)C(=O)N[C@@H](CC(=O)O)C(=O)NCC(=O)N[C@H](CO)C(=O)N[C@@H]([C@H](C)CC(=O)O)C(=O)N[C@@H](CC(=O)c2ccccc2N)C(=O)O[C@@H]1C | – | SH1000 | together with: sphingomyelin, molar ratio 0.5 | 1 µg/mL |
| CC[C@H]1OC(=O)[C@H](C)[C@@H](O[C@H]2C[C@@](C)(OC)[C@@H](O)[C@H](C)O2)[C@H](C)[C@@H](O[C@@H]2O[C@H](C)C[C@H](N(C)C)[C@H]2O)[C@](C)(O)C[C@@H](C)C(=O)[C@H](C)[C@@H](O)[C@]1(C)O | – | MRSA 1 | – | 100 µM |
| CN[C@H](CC(C)C)C(=O)N[C@H]1C(=O)N[C@@H](CC(N)=O)C(=O)N[C@H]2C(=O)N[C@H]3C(=O)N[C@H](C(=O)N[C@H](C(=O)O)c4cc(O)cc(O)c4-c4cc3ccc4O)[C@H](O)c3ccc(c(Cl)c3)Oc3cc2cc(c3O[C@@H]2O[C@H](CO)[C@@H](O)[C@H](O)[C@H]2O[C@H]2C[C@](C)(N)[C@H](O)[C@H](C)O2)Oc2ccc(cc2Cl)[C@H]1O | broth microdilution | MRSA NCTC 12493 | – | 1 µM |
| C[C@H]1COC2=C1C(=O)C(=O)c1c2ccc2c1CCCC2(C)C | – | GDMCC 1.122 | 48 h | 125 µM |
| NC[C@H]1O[C@H](O[C@H]2[C@H](O)[C@@H](O[C@H]3O[C@H](CO)[C@@H](O)[C@H](N)[C@H]3O)[C@H](N)C[C@@H]2N)[C@H](N)C[C@@H]1O | – | 147 MRSA clinical isolate | – | 6.25 µM |
| CC1(C)S[C@@H]2[C@H](NC(=O)[C@H](N)c3ccc(O)cc3)C(=O)N2[C@H]1C(=O)O | broth microdilution | MRSA | – | 16 µg/mL |
| O=[N+]([O-])c1ccc(O)c2ncccc12 | broth microdilution | ATCC 43300 MRSA | – | 8 µg/mL |
| CC12CC3(C)CC(C(=O)O)(C1)CC(C(=O)O)(C2)C3 | – | – | – | > 128 µg/mL |
| [Cl][Fe]([Cl])[Cl] | – | – | 24 h, 37 °C | > 1600 µM |
| CC[C@@H](C)[C@H]1O[C@@H](c2c(O)c(-c3ccccc3)cn(O)c2=O)[C@H](C)C[C@@H]1C | – | ATCC 29213 | – | > 20 µg/mL |
| CCN(CC)/C(N)=N\c1ccc(NC(=O)c2ccc(C(=O)Nc3ccc(/N=C(\N)N(CC)CC)cc3)cc2)cc1 | – | – | – | 8 µg/mL |
| CC[C@H](C)CCCCC(=O)N[C@@H](CCN)C(=O)N[C@H](C(=O)N[C@@H](CCN)C(=O)N[C@H]1CCNC(=O)[C@H]([C@@H](C)O)NC(=O)[C@H](CCN)NC(=O)[C@H](CCN)NC(=O)[C@H](CC(C)C)NC(=O)[C@@H](CC(C)C)NC(=O)[C@H](CCN)NC1=O)[C@@H](C)O | broth microdilution | MSSA ATCC 29213, cation-adjusted Mueller-Hinton broth | 20 to 24 h, 37 °C, 0.002% polysorbate 80 | > 128 µg/mL |
| CN(C)[C@@H]1C(O)=C(C(N)=O)C(=O)[C@@]2(O)C(O)=C3C(=O)c4c(O)cccc4[C@@](C)(O)[C@H]3C[C@@H]12 | – | 138 | – | 0.15 µM |
| CN(C)[C@@H]1C(O)=C(C(N)=O)C(=O)[C@@]2(O)C(O)=C3C(=O)c4c(O)cnc(F)c4C[C@H]3C[C@@H]12.Cl | broth microdilution CLSI | ATCC 29213 | – | 0.031 µg/mL |

Repeated from above:
| SMILES | assay | system | setting | MIC |
| --- | --- | --- | --- | --- |
| C[C@H]1COC2=C1C(=O)C(=O)c1c2ccc2c1CCCC2(C)C | – | GDMCC 1.122 | 48 h | 125 µM |
| NC[C@H]1O[C@H](O[C@H]2[C@H](O)[C@@H](O[C@H]3O[C@H](CO)[C@@H](O)[C@H](N)[C@H]3O)[C@H](N)C[C@@H]2N)[C@H](N)C[C@@H]1O | – | MRSA 1 | – | 6.25 µM |
| NCCCC[C@H](NC(=O)[C@H](Cc1ccccc1)NC(=O)[C@H](CCC(N)=O)NC(=O)[C@H](Cc1ccccc1)NC(=O)[C@H](CCC(N)=O)NC(=O)[C@@H](N)Cc1ccccc1)C(N)=O | broth microdilution, optical density | ATCC 25923 | – | > 2000 µM |
| O=[N+]([O-])c1ccc(O)c2ncccc12 | broth microdilution | ATCC 43300 MRSA | – | 8 µg/mL |
| NC[C@H]1O[C@H](O[C@H]2[C@H](O)[C@@H](O[C@H]3O[C@H](CO)[C@@H](O)[C@H](N)[C@H]3O)[C@H](N)C[C@@H]2N)[C@H](N)C[C@@H]1O | – | 147 MRSA clinical isolate | – | 6.25 µM |
| COc1ccc2nc(NC(=O)c3cc(=O)c4ccccc4o3)sc2c1 | – | – | – | > 128 µg/mL |
